Experimental data from different studies.
Each line is one published result; not all experiments were run side by side. ± marks the error that the study gave.
P4HB: Protein disulfide-isomerase (P4HB, Homo sapiens, UniProt P07237)
Sequence of UniProt P07237 (whole entry, looked up): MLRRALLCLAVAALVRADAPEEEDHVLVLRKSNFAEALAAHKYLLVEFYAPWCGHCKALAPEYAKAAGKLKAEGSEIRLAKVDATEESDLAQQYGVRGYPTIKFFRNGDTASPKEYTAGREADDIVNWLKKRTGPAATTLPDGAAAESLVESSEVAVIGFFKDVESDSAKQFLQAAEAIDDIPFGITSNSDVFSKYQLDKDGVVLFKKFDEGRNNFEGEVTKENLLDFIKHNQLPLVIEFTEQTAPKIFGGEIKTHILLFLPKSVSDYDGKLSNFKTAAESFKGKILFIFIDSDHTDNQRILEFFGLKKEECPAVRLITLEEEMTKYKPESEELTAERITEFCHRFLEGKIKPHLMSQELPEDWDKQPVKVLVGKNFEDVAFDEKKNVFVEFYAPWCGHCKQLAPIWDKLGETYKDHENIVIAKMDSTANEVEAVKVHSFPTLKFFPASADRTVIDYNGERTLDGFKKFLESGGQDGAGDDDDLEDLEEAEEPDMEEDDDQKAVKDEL
GBA1 R534H: Lysosomal acid glucosylceramidase (GBA1, Homo sapiens, UniProt P04062, R534H)
Sequence of UniProt P04062 (whole entry, unmodified, looked up): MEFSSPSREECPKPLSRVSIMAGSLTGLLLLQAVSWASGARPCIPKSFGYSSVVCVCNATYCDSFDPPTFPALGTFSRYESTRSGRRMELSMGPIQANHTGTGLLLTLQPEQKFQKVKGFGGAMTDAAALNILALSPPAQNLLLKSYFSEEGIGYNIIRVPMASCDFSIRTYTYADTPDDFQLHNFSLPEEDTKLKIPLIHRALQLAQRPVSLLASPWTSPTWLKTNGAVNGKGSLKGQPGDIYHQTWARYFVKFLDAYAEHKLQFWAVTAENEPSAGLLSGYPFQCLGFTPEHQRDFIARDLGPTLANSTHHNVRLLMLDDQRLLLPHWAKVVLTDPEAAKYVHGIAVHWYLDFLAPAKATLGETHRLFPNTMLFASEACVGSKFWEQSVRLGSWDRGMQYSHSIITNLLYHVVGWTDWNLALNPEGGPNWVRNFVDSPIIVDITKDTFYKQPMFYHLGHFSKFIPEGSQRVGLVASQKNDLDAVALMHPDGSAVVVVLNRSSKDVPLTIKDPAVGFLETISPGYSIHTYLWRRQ
PSMB8: Proteasome subunit beta type-8 (PSMB8, Homo sapiens, UniProt P28062)
HDAC6: Protein deacetylase HDAC6 (HDAC6, Homo sapiens, UniProt Q9UBN7)
Sequence of UniProt Q9UBN7 (whole entry, looked up): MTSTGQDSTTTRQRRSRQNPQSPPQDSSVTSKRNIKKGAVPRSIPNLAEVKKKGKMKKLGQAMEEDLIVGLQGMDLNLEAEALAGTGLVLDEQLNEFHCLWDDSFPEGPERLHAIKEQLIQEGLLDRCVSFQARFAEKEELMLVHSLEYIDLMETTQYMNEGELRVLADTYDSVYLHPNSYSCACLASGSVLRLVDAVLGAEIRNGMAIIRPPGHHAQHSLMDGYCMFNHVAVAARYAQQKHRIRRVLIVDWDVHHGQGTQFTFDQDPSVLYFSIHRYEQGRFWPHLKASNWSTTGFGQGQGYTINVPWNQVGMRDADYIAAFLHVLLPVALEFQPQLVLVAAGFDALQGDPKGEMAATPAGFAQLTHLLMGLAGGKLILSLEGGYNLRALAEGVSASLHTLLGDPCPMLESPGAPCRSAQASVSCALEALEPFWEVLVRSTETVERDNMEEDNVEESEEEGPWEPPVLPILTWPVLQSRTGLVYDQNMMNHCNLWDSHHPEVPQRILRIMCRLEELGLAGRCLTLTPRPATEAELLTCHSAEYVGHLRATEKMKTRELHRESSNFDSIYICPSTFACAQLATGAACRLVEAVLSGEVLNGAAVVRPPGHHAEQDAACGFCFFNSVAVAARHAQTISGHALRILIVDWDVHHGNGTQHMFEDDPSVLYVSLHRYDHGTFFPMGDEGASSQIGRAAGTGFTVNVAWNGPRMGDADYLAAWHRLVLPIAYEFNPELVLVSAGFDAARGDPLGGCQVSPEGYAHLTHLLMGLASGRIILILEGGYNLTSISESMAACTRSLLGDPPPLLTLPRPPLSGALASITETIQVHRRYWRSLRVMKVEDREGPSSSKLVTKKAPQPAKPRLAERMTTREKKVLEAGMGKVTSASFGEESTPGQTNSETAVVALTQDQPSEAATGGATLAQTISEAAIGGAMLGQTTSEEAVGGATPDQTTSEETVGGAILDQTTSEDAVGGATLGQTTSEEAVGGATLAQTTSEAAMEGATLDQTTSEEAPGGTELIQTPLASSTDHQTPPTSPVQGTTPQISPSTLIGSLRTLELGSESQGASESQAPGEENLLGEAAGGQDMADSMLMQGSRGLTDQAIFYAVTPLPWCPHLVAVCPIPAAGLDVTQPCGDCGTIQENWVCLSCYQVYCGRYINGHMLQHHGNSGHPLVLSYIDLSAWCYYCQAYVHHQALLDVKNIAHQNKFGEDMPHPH
GBA1: Lysosomal acid glucosylceramidase (GBA1, Homo sapiens, UniProt P04062)
Gria1/Gria2: Glutamate receptor AMPA 1/2 (Gria1/Gria2, Rattus norvegicus, UniProt P19490+P19491)
Sequence of UniProt P19491 (whole entry, looked up): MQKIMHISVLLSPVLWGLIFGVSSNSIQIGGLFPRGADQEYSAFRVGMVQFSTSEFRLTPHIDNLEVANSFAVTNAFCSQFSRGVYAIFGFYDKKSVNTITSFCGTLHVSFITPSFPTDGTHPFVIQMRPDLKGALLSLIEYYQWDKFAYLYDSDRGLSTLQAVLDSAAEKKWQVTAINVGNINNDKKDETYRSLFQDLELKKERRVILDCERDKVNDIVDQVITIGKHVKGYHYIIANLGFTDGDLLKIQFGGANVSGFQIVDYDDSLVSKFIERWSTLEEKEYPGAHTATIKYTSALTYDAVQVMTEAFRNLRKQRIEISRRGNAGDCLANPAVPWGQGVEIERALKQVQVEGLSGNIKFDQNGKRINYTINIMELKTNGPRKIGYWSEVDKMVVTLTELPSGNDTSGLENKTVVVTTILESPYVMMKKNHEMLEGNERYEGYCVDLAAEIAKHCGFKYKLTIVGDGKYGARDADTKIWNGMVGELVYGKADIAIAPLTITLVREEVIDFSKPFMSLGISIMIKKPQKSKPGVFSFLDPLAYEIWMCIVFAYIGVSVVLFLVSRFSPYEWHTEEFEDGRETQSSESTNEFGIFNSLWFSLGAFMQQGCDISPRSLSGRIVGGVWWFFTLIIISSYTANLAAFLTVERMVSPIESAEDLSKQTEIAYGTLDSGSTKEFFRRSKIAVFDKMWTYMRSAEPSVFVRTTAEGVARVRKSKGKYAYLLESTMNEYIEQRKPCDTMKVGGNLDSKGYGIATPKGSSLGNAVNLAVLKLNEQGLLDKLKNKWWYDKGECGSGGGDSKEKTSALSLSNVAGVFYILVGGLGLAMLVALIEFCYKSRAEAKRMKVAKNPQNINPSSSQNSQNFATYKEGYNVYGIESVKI
Sequence of UniProt P19490 (whole entry, looked up): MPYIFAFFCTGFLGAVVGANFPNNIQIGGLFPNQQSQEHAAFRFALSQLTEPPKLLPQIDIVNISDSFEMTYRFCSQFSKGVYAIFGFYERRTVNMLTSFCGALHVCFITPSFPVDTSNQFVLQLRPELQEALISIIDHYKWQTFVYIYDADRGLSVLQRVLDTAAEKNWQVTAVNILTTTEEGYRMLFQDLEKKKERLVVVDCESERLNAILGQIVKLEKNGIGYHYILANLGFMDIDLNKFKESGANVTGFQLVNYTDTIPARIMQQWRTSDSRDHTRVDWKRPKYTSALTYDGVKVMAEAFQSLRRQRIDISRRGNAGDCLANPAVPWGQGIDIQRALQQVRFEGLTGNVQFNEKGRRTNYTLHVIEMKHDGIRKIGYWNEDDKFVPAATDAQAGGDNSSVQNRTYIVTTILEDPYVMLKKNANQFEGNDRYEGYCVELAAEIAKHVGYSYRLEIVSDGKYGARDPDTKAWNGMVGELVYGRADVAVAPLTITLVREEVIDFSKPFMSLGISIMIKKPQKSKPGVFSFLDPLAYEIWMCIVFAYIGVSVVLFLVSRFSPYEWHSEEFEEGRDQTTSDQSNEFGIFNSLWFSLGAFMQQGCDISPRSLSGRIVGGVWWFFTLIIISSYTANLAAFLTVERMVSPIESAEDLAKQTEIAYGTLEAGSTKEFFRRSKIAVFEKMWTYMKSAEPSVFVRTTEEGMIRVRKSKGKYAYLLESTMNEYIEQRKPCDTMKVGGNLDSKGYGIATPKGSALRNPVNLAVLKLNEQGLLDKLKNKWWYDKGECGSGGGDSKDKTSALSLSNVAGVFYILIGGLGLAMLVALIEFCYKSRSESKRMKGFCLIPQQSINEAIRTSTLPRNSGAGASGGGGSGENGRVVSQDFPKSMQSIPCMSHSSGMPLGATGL
HDAC9: Histone deacetylase 9 (HDAC9, Homo sapiens, UniProt Q9UKV0)
Sequence of UniProt Q9UKV0 (whole entry, looked up): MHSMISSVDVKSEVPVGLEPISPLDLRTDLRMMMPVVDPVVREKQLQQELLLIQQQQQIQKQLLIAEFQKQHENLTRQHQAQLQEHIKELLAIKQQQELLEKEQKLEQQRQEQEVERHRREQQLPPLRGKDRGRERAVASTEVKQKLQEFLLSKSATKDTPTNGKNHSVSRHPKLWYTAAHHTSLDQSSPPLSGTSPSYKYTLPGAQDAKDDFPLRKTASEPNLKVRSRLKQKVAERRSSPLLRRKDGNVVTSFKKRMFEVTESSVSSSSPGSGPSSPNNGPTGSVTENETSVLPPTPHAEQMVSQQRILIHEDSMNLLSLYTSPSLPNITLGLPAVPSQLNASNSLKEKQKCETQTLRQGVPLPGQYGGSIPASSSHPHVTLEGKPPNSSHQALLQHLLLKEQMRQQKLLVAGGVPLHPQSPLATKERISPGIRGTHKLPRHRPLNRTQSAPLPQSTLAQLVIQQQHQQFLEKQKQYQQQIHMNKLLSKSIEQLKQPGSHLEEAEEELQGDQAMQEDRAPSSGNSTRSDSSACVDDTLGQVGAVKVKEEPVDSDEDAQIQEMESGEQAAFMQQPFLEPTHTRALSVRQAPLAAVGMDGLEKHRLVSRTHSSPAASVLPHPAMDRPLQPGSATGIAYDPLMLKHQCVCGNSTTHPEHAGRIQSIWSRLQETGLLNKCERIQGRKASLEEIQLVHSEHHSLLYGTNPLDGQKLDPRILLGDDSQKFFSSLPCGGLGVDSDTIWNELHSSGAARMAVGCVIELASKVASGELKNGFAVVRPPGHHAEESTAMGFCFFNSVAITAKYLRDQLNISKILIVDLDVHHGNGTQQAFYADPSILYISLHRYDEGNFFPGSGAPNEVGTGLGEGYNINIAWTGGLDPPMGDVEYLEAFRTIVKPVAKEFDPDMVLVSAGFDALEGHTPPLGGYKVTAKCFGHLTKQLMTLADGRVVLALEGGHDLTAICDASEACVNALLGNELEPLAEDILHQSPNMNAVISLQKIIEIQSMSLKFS
IRAK4: Interleukin-1 receptor-associated kinase 4 (IRAK4, Homo sapiens, UniProt Q9NWZ3)
PSMB6/PSMB7: PSMB6/PSMB7 (Homo sapiens, UniProt P28072+Q99436)

CCCC[C@H](NC(C)=O)C(=O)N[C@@H](CO)C(=O)N[C@H](C(=O)N1CCC[C@H]1C(=O)N[C@]1(C)CCCCCCC=CCCC[C@@](C)(C(=O)N[C@@H](Cc2ccccc2)C(=O)N[C@@H](CCCCN)C(=O)N[C@@H](CCCNC(=N)N)C(=O)N[C@@H](CC(C)C)C(=O)N[C@@H](CCC(N)=O)C(N)=O)NC(=O)[C@H](CCCNC(=N)N)NC(=O)[C@H](CCCC)NC(=O)[C@H](CC(C)C)NC(=O)[C@H](CCCNC(=N)N)NC(=O)[C@H](CCCNC(=N)N)NC(=O)[C@H](CCCNC(=N)N)NC1=O)[C@@H](C)O
remaining peptide (proteinase K; LC-MS; 25 µM, 123.0 min, pH 7.4): 75.4%

O=C(/C=C/c1ccc(Cl)cc1Cl)c1ccc2c(c1)OCCO2
IC50 (P4HB; enzyme activity, inhibitor): > 10 µM

OC[C@H]1c2[nH]cnc2[C@H](O)[C@@H](O)[C@@H]1O
IC50 (bglA (Thermotoga maritima, UniProt Q08638); enzyme activity, inhibitor; pH 6.8, with preincubation): 107 µM

CCOc1cc(CN2CC3(CC(N4CCC(C(=O)O)CC4)=NO3)C2)cc(OCC)c1-c1ccc(F)cc1
IC50 (Somatostatin receptor type 5 (SSTR5, Homo sapiens, UniProt P35346, Y47A); cAMP level, antagonist, GloSensor; AD293; Y47A mutant, bandwidth 1.39, with: CST17 EC80 and forskolin): 43.7 µM

CCCCCCCOCCCCCN1C[C@H](O)[C@@H](O)[C@H](O)[C@@H]1CO
IC50 (GBA1 R534H; inhibitor, 4MU-β-D-glucopyranoside; with: 4MU-β-D-glucopyranoside): 40 µM

CCOC(=O)C[C@@H](C#N)NC(=O)[C@@H]1CCCN1C(=O)[C@@H](NC(=O)c1ccc(N)c(Cl)c1)C(C)(C)C
IC50 (Caspase-5 (CASP5, Homo sapiens, UniProt P51878); enzyme activity, inhibitor): 0.359 µM

CC(C)C[C@H](NC(=O)[C@H](Cc1ccc(CN)cc1)NC(=O)[C@H](Cc1ccccc1)N=[N+]=[N-])C(=O)N[C@@H](CCC1CCCCC1)C(=O)[C@@]1(C)CO1
IC50 (PSMB8; enzyme activity, inhibitor; lysate): > 10 µM

Nc1ncc(-c2cc(-c3cnn(CC(F)(F)F)c3)ncc2F)nc1C(=O)NC1CNCC(F)C1 (centres unmarked)
remaining binding (PLK1; KINOMEscan; 1 µM; baseline: DMSO control): 100%

O=C(Cc1ccc(OCc2ccccc2)cc1)NC1(C(=O)O)CCN(C(=O)c2ccc(-c3cccc(Cl)c3)cc2)CC1
IC50 (Lysophosphatidic acid receptor 2 (LPAR2, Homo sapiens, UniProt Q9HBW0); antagonist, GloSensor cAMP): > 10 µM

C[C@@H](O)[C@@H]1NC(=O)[C@H](CCCCN)NC(=O)[C@@H](Cc2c[nH]c3ccccc23)NC(=O)[C@H](Cc2ccc(NC(N)=O)cc2)NC(=O)[C@H](NC(=O)[C@H](Cc2ccccc2)NC(N)=O)CSSC[C@@H](C(=O)N[C@@H](Cc2ccc3ccccc3c2)C(N)=O)NC1=O
IC50 (Somatostatin receptor type 1 (SSTR1, Homo sapiens, UniProt P30872); ligand displacement, radioligand): > 1 µM

Cc1cc(C(C)(C)C)ccc1OS(=O)(=O)Oc1cncc(C(=O)NO)c1
IC50 (HDAC6; enzyme activity, inhibitor, fluorescence): 0.688 µM

Cc1cc(=O)oc2c(F)c(O[C@@H]3C=C(CO)[C@@H](O)[C@H](O)[C@H]3O)c(F)cc12
IC50 (GBA1; with: resorufin β-glucoside at Km): 14.3 ± 1.7 µM

CC(C)(C)NC(=O)C1CCN(Cc2cccc(/N=N/c3ccc(F)c(F)c3F)c2)CC1
IC50 (Atypical chemokine receptor 3 (ACKR3, Homo sapiens, UniProt P25106); ligand displacement, BRET): > 10 µM

O=C(/C=C/c1cccc(C(F)(F)F)c1)c1cccc(O)c1
IC50 (P4HB; enzyme activity, inhibitor): 0.97 µM

Cc1ccc2nc(C)n(/N=C/c3ccc(C(=O)O)cc3)c(=O)c2c1
IC50 (Phospholipase A2 group V (PLA2G5, Homo sapiens, UniProt P39877); enzyme activity, inhibitor, colorimetric): 93.7 ± 3.52 µM

C[C@@H](Nc1nc2c(cnn2C(C)(C)C)c(=O)n1Cc1cccc(F)c1)c1ccc(Cl)cc1
IC50 (cAMP and cAMP-inhibited cGMP 3',5'-cyclic phosphodiesterase 10A (PDE10A, Homo sapiens, UniProt Q9Y233); enzyme activity, inhibitor): 0.995 µM

Fc1ccc(Nc2nc(NC3CCCCC3)c3cc(Br)ccc3n2)cc1F
IC50 (Beta-2 adrenergic receptor (ADRB2, Homo sapiens, UniProt P07550, V126A); β-arrestin2 recruitment, antagonist, BRET; HEK293; mutant V126A, with: isoprenaline 1 µM): 0.794 µM

OC[C@@H]1[C@@H](O)[C@H](O)[C@@H](O)CN1CCCCCCOCC12CC3CC(CC(C3)C1)C2
IC50 (GBA1 R534H; inhibitor, 4MU-β-D-glucopyranoside; with: 4MU-β-D-glucopyranoside): 0.1 µM

COc1cc(OC)c(OC)cc1/C=C/C(=O)c1ccc2c(c1)CCO2
IC50 (P4HB; enzyme activity, inhibitor): > 100 µM

COC(=O)Cc1cc2c(cc1C(=O)c1ccccc1Br)OCO2
IC50 (Gria1/Gria2; ion current, antagonist, patch clamp): 5.5 µM

Cc1cnc(Nc2ccc3c(c2)CCN(C(=O)/C=C/C(=O)c2ccc(Cl)cc2)C3)nc1-c1cnn(C(C)C)c1
IC50 (Tyrosine-protein kinase JAK3 (JAK3, Homo sapiens, UniProt P52333); enzyme activity, inhibitor, ADP detection): > 0.03 µM

COc1cccc(/C=C/C(=O)c2ccc3c(c2)NC(=O)CO3)c1OC(F)F
IC50 (P4HB; enzyme activity, inhibitor): 96 µM

O=C(CCNc1cccc2c1C(=O)N(C1CCC(=O)NC1=O)C2=O)NCCOCCOCCOCCN1CCC(CNC(=O)c2cccc(-c3noc(C(F)(F)F)n3)c2)(c2nc(-c3ccccc3)cs2)CC1 (centres unmarked)
IC50 (HDAC9; enzyme activity, inhibitor): 0.16 µM

O[C@H]1[C@H](O)[C@@H](O)c2[nH]cnc2[C@@H]1O
IC50 (GBA1 R534H; 30 min preincubation, pH 5.2, with: 200 µM 2,4-dinitrophenyl-β-D-glucopyranoside): 21.8 µM

CC(C)(C)c1cccc(OS(=O)(=O)Oc2cc(F)cc(C(=O)NO)c2)c1
IC50 (HDAC6; enzyme activity, inhibitor, fluorescence): 0.696 µM

Cn1cc(-c2ccc3[nH]c4nccc(N[C@H]5CC[C@H](N6CCOCC6)CC5)c4c3c2)cn1
IC50 (IRAK4; enzyme activity, inhibitor, AlphaScreen; with: ATP 200 µM): 0.0336 µM

COc1ccc(C(=O)/C=C/c2cccc(O)c2)cc1F
IC50 (P4HB; enzyme activity, inhibitor): > 100 µM

CC(C)C[C@H](NC(=O)[C@H](Cc1ccc(CN)cc1)NC(=O)[C@H](Cc1ccccc1)N=[N+]=[N-])C(=O)N[C@@H](CC1CCC(C2CCCCC2)CC1)C(=O)[C@@]1(C)CO1 (some centres unmarked)
IC50 (PSMB8; enzyme activity, inhibitor; lysate): > 10 µM

CNC(=O)Nc1ccc(Cc2ccc(NC(=O)c3nc(N)sc3-c3ccccc3)cc2)cc1
IC50 (Epithelial discoidin domain-containing receptor 1 (DDR1, Homo sapiens, UniProt Q08345); ligand displacement): 1.5 µM

COC1CN([C@H]2CC[C@H]([C@@]3(C)Oc4c(Cl)cc(C(=O)NCc5c(SC)cc(C)[nH]c5=O)c(C)c4O3)CC2)C1
log2 fold change (RNA-seq, item: CD276 mouse homolog; mouse, HT-1376 xenograft, whole blood; dose not given; baseline: vehicle): 0.659

CCCCCCN1C[C@H](O)[C@@H](O)[C@H](O)[C@H]1CO
IC50 (GBA1 R534H; inhibitor, 4MU-β-D-glucopyranoside; with: 4MU-β-D-glucopyranoside): 80 µM

O=c1c(-c2cnn(-c3ccccc3)c2)c(C(F)(F)F)oc2c(O)c(O)ccc12
IC50 (Cullin-1, C-terminal domain with ROC1 (Homo sapiens, UniProt Q13616); inhibitor, FRET; with: ROC1-CUL1 CTD): 5.01 µM

OC[C@@H]1[C@@H](O)[C@H](O)[C@@H](O)CN1CCCCCOCc1ccc(-c2ccc(Cl)cc2)cc1
IC50 (GBA1 R534H; inhibitor, 4MU-β-D-glucopyranoside; with: 4MU-β-D-glucopyranoside): 0.5 µM

O=C(CCc1ccc(CNC(C(=O)OC2CCCC2)C2CCCCC2)cn1)NO (centres unmarked)
IC50 (HDAC9; enzyme activity, inhibitor): > 10 µM

OC[C@H]1N[C@H](CCCCOCC23CC4CC(CC(C4)C2)C3)[C@H](O)[C@@H](O)[C@@H]1O
IC50 (GBA1 R534H; inhibitor, 4MU-β-D-glucopyranoside; with: 4MU-β-D-glucopyranoside): 0.35 µM

O=C(O)Cc1cc2c(cc1C(=O)c1ccccc1I)OCO2
IC50 (Gria1/Gria2; ion current, patch clamp): 4.68 µM

CCCOc1c(Br)cc(/C=C/C(=O)c2ccc3c(c2)OCCO3)cc1OC
IC50 (P4HB; enzyme activity, inhibitor): > 100 µM

Cc1nn(-c2cccc(N)c2)c(=O)c2cnc(Nc3ccc(N4CCNCC4)cc3)nc12
IC50 (IRAK4; enzyme activity, inhibitor): > 10 µM

CC[C@H](C)C(=O)O[C@H]1C[C@@H](C)C=C2C=C[C@H](C)[C@H](CC[C@@H]3CC=CC(=O)O3)[C@H]21
IC50 (Cystic fibrosis transmembrane conductance regulator (CFTR, Homo sapiens, UniProt P13569); ion current, inhibitor): 1.09 µM

OC[C@@H]1[C@@H](O)[C@H](O)[C@@H](O)CN1CCCCCOCc1ccc(-c2cccc(F)c2)cc1
IC50 (GBA1 R534H; inhibitor, 4MU-β-D-glucopyranoside; with: 4MU-β-D-glucopyranoside): 0.03 µM

CC(C)(O)c1ccc(N2Cc3c(ccnc3-c3ccc(F)cc3OCC(F)(F)F)C2=O)cc1
IC50 (GBA1; enzyme activity, inhibitor): > 300 µM

CC(C)=CCC/C(C)=C/CC/C(C)=C/CN1C[C@@H](O)[C@H](O)[C@H](O)[C@@H]1CO
IC50 (GBA1 R534H; inhibitor, 4MU-β-D-glucopyranoside; with: 4MU-β-D-glucopyranoside): 100 µM

c1ccc(CSc2nc3ccccc3cc2CNCCC2CCN(C3CCCC3)CC2)cc1
IC50 (atpB/atpE (Pseudomonas aeruginosa, UniProt Q9HT14+Q9HT15); ATP synthesis, inhibitor; Pseudomonas aeruginosa inverted membrane vesicles; with: NADH): 0.979 µM

CCc1c(C)[nH]n(-c2ccc(Oc3ccccc3)c(S(=O)(=O)O)c2)c1=O
IC50 (Protein FosB, ΔFosB isoform, with JunD (Fosb, Mus musculus, UniProt P13346); ΔFosB/JunD binding to AP-1 DNA, inhibitor, fluorescence polarization; protein, full length 280 nM, no TCEP, with: 25 nM TMR-cdk5 oligonucleotide): 10 to 90 µM

O=C(O)Cc1cc2c(cc1C(=O)c1cccc(I)c1)OCO2
IC50 (Gria1/Gria2; ion current, antagonist, patch clamp): 4.68 µM

CCCCCN1C[C@H](O)[C@@H](O)[C@H](O)[C@H]1CO
IC50 (GBA1 R534H; inhibitor, 4MU-β-D-glucopyranoside; with: 4MU-β-D-glucopyranoside): 500 µM

Nc1ncc2c(n1)-c1c([nH]c3ccc(C4=CCOCC4)cc13)CCC2
IC50 (Phosphatidylinositol 4-phosphate 5-kinase type-1 gamma (PIP5K1C, Homo sapiens, UniProt O60331); enzyme activity, inhibitor, TR-FRET): 0.84 µM

CN1CCC[C@@H]1C(=O)N[C@@H](Cc1ccc(-c2ccccc2)cc1)B(O)O
IC50 (PSMB6/PSMB7; β1c caspase-like activity, inhibitor; constitutive proteasome, with: Z-LLE-AMC): > 10 µM

CC[C@H](C)[C@@H]1NC(=O)[C@H](Cc2ccccc2C(F)(F)F)NC(=O)CCSCc2cccc(n2)CSCCCNC(=O)[C@H](CCCCCC(=O)NO)NC1=O
IC50 (HDAC6; enzyme activity, inhibitor, fluorescence): 0.048 µM

COC(=O)Cc1cc2c(cc1C(=O)c1ccccc1I)OCO2
IC50 (Gria1/Gria2; ion current, patch clamp): 5.98 µM

O=C(CSc1nc2ccccc2[nH]1)N/N=C/c1cc2c(s1)CCCC2
IC50 (1-deoxy-D-xylulose-5-phosphate synthase (dxs, Deinococcus radiodurans, UniProt Q9RUB5); inhibitor; estimated): 317 ± 30.1 µM

COC(=O)Cc1cc2c(cc1C(=O)c1ccc(Cl)cc1Cl)OCO2
IC50 (Gria1/Gria2; ion current, antagonist, patch clamp): 4.9 µM

COCCN(C)C(C)C(=O)NC(Cc1ccc(-c2ccccc2)cc1)B(O)O (centres unmarked)
IC50 (PSMB6/PSMB7; β1c caspase-like activity, inhibitor; constitutive proteasome, with: Z-LLE-AMC): > 10 µM

Repeated from above:
OC[C@@H]1[C@@H](O)[C@H](O)[C@@H](O)CN1CCCCCOCc1ccc(-c2ccc(Cl)cc2)cc1
IC50 (GBA1 R534H; inhibitor, 4MU-β-D-glucopyranoside; with: 4MU-β-D-glucopyranoside): 0.5 µM

O=C(CCc1ccc(CNC(C(=O)OC2CCCC2)C2CCCCC2)cn1)NO (centres unmarked)
IC50 (HDAC9; enzyme activity, inhibitor): > 10 µM

OC[C@H]1N[C@H](CCCCOCC23CC4CC(CC(C4)C2)C3)[C@H](O)[C@@H](O)[C@@H]1O
IC50 (GBA1 R534H; inhibitor, 4MU-β-D-glucopyranoside; with: 4MU-β-D-glucopyranoside): 0.35 µM

O=C(O)Cc1cc2c(cc1C(=O)c1ccccc1I)OCO2
IC50 (Gria1/Gria2; ion current, patch clamp): 4.68 µM

CCCOc1c(Br)cc(/C=C/C(=O)c2ccc3c(c2)OCCO3)cc1OC
IC50 (P4HB; enzyme activity, inhibitor): > 100 µM

Cc1nn(-c2cccc(N)c2)c(=O)c2cnc(Nc3ccc(N4CCNCC4)cc3)nc12
IC50 (IRAK4; enzyme activity, inhibitor): > 10 µM

CC[C@H](C)C(=O)O[C@H]1C[C@@H](C)C=C2C=C[C@H](C)[C@H](CC[C@@H]3CC=CC(=O)O3)[C@H]21
IC50 (Cystic fibrosis transmembrane conductance regulator (CFTR, Homo sapiens, UniProt P13569); ion current, inhibitor): 1.09 µM
